Published values of several laboratories.
Protocols differ between the studies behind these lines. “And” joins repeats or separate records; there may be more than shown. ± gives the spread as reported.

Compound | assay | system | setting | quantity | value
CC(C)[C@@H]1NC(=O)[C@@H]2CSSC[C@@H]3NC(=O)[C@H]([C@@H](C)O)NC(=O)[C@@H]4CSSC[C@H](NC(=O)[C@H](C(C)C)NC(=O)[C@@H]5CCCN5C(=O)[C@H](CCCCN)NC(=O)CNC(=O)[C@H](CC(N)=O)NC(=O)[C@H](CCCNC(=N)N)NC(=O)[C@H]([C@@H](C)O)NC(=O)[C@H](CSSC[C@H](NC(=O)[C@H]([C@@H](C)O)NC(=O)CNC(=O)CNC1=O)C(=O)N[C@@H](CC(N)=O)C(=O)N[C@@H]([C@@H](C)O)C(=O)N1CCC[C@H]1C(=O)NCC(=O)N4)NC(=O)[C@H](C(C)C)NC(=O)[C@@H]1CCCN1C(=O)[C@H](Cc1c[nH]c4ccccc14)NC(=O)[C@H](CO)NC3=O)C(=O)NCC(=O)N[C@@H](CCC(=O)O)C(=O)N[C@@H]([C@@H](C)O)C(=O)N2 | HPLC | water | 180 µM, 14 days, 37 °C, deamidation stability | remaining peptide | 100%
C/C(=C\CCP(=O)(OCOC(=O)CC1CCOCC1)Oc1ccc(C(C)C)cc1)CO (stereo not drawn) | – | 50% Sprague-Dawley rat plasma | 100 µM, 2 h, pH 7.5, 37 °C | remaining compound | 0%
CCC[C@@](N)(CO)CCc1ccc(OCCCCCC(C)C)cc1 | – | human liver microsomes | 1 h | remaining compound | 60%
CC(C)C[C@@H]1NC(=O)CNC(=O)[C@H](CCCCN)NC(=O)[C@H](CCCNC(=N)N)NC(=O)[C@H]([C@@H](C)O)NC(=O)[C@@H]2CSSC[C@@H]3NC(=O)[C@H]([C@@H](C)O)NC(=O)CNC(=O)CNC(=O)[C@H](C(C)C)NC(=O)[C@@H]4CSSC[C@H](NC(=O)[C@H](CCCCN)NC(=O)[C@H](CSSC[C@H](NC(=O)[C@H](C(C)C)NC(=O)[C@@H]5CCCN5C1=O)C(=O)NCC(=O)N[C@@H](CCC(=O)O)C(=O)N[C@@H]([C@@H](C)O)C(=O)N4)NC(=O)CNC(=O)[C@@H]1CCCN1C(=O)[C@H]([C@@H](C)O)NC(=O)[C@H](CC(N)=O)NC3=O)C(=O)N[C@@H](CO)C(=O)N[C@@H](Cc1c[nH]c3ccccc13)C(=O)N1CCC[C@H]1C(=O)N[C@@H](C(C)C)C(=O)N2 | HPLC | ammonium bicarbonate | 180 µM, 14 days, pH 9.0, 25 °C, deamidation stability | remaining peptide | 100%
CC[C@H](C)[C@H](NC(C)=O)C(=O)N[C@@H](CC(C)C)C(=O)N[C@@H](CCCNC(=N)N)C(=O)N[C@@H](Cc1c[nH]c2ccccc12)C(=O)N[C@@H](CO)C(=O)N[C@@H](CCCNC(=N)N)C(=O)N[C@@H](CCCCN)C(=O)N[C@@H](CC(C)C)C(=O)N1CCC[C@H]1C(=O)N[C@@H](CS)C(=O)N[C@H](C(=O)N[C@@H](CO)C(N)=O)C(C)C | 12G5 competition, SUP-T1 cells | human plasma | concentration not given, 2 h | remaining activity | 78 ± 4%
CCCCN1CCC(COC(=O)c2ccc(N)c(O[11CH3])c2)CC1 | – | rhesus monkey whole blood | 30 min, with: NaF 9.5 mM | remaining parent compound | 99.3%
CSCC[C@H](NC(=O)[C@H](N)Cc1ccccc1)C(=O)N[C@@H](CCCNC(=N)N)C(=O)N[C@@H](Cc1c[nH]c2ccccc12)C(=O)N[C@@H](CO)C(=O)N[C@@H](CCCNC(=N)N)C(=O)N[C@@H](CCCCN)C(=O)N[C@@H](CCSC)C(=O)N1CCC[C@H]1C(=O)N[C@@H](CS)C(=O)N[C@H](C(=O)N[C@@H](CO)C(N)=O)C(C)C | 12G5 competition, SUP-T1 cells | human plasma | concentration not given, 2 h | remaining activity | 70 ± 5%
CC[C@@H](C)[C@@H](NC(=O)[C@@H](Cc1ccc(O)cc1)NC(=O)[C@H]1CCCN1C(=O)[C@@H](CCCNC(=N)N)NC(=O)[C@H](N)Cc1c[nH]cn1)C(=O)N[C@H](C)C(=O)N[C@H](Cc1c[nH]cn1)C(=O)N[C@H](CCCNC(=N)N)C(=O)N[C@@H](C(=O)N[C@H](Cc1ccc(O)cc1)C(=O)N[C@H](CO)C(=O)N[C@H](Cc1ccccc1)C(N)=O)C(C)C | – | 10% human serum | 48 h | remaining compound | 95.3% and 94.6%
CC(C)C[C@@H]1NC(=O)CNC(=O)[C@H](CC(N)=O)NC(=O)[C@H](CCCNC(=N)N)NC(=O)[C@H](CCCCN)NC(=O)[C@@H]2CSSC[C@@H]3NC(=O)[C@H]([C@@H](C)O)NC(=O)CNC(=O)CNC(=O)[C@H](C(C)C)NC(=O)[C@@H]4CSSC[C@H](NC(=O)[C@H]([C@@H](C)O)NC(=O)[C@H](CSSC[C@H](NC(=O)[C@H](C(C)C)NC(=O)[C@@H]5CCCN5C1=O)C(=O)NCC(=O)N[C@@H](CCC(=O)O)C(=O)N[C@@H]([C@@H](C)O)C(=O)N4)NC(=O)CNC(=O)[C@@H]1CCCN1C(=O)[C@H]([C@@H](C)O)NC(=O)[C@H](CC(N)=O)NC3=O)C(=O)N[C@@H](CO)C(=O)N[C@@H](Cc1c[nH]c3ccccc13)C(=O)N1CCC[C@H]1C(=O)N[C@@H](C(C)C)C(=O)N2 | HPLC | water | 180 µM, 14 days, 37 °C, deamidation stability | remaining peptide | 98.6 ± 0.5%
CCCCCCCCCCCCN1/C(=C\C=C\C2=[N+](CCCCCCCCCCCC)c3ccccc3C2(C)C)C(C)(C)c2ccccc21.[O-][Cl+3]([O-])([O-])[O-] | HPLC | mouse serum | 24 h, 37 °C | remaining intact compound | > 95%
CC(C)C[C@@H]1NC(=O)CNC(=O)[C@H](CC(N)=O)NC(=O)[C@H](CCCNC(=N)N)NC(=O)[C@H]([C@@H](C)O)NC(=O)[C@@H]2CSSC[C@@H]3NC(=O)[C@H]([C@@H](C)O)NC(=O)CNC(=O)CNC(=O)[C@H](C(C)C)NC(=O)[C@@H]4CSSC[C@H](NC(=O)[C@H]([C@@H](C)O)NC(=O)[C@H](CSSC[C@H](NC(=O)[C@H](CCCCN)NC(=O)[C@@H]5CCCN5C1=O)C(=O)NCC(=O)N[C@@H](CCC(=O)O)C(=O)N[C@@H]([C@@H](C)O)C(=O)N4)NC(=O)CNC(=O)[C@@H]1CCCN1C(=O)[C@H]([C@@H](C)O)NC(=O)[C@H](CC(N)=O)NC3=O)C(=O)N[C@@H](CO)C(=O)N[C@@H](Cc1c[nH]c3ccccc13)C(=O)N1CCC[C@H]1C(=O)N[C@@H](C(C)C)C(=O)N2 | HPLC | ammonium bicarbonate | 180 µM, 7 days, pH 9.0, 25 °C, deamidation stability | remaining peptide | 85 ± 7.7%
CC[C@@H](C)[C@@H](NC(=O)[C@@H](Cc1ccc(O)cc1)NC(=O)[C@H]1CCCN1C(=O)[C@@H](CCCNC(=N)N)NC(=O)[C@H](N)Cc1c[nH]cn1)C(=O)N[C@H](C)C(=O)N[C@H](Cc1c[nH]cn1)C(=O)N[C@H](CCCNC(=N)N)C(=O)N[C@H](CCCCNC(=O)c1cccc(S(=O)(=O)F)c1)C(=O)N[C@H](Cc1ccc(O)cc1)C(=O)N[C@H](CO)C(=O)N[C@H](Cc1ccccc1)C(N)=O | – | 10% human serum | 1 h | remaining compound | 108% and 109%
O=C/C=C/c1ccccc1 | – | FeSSIF | 2 h, pH 4.92, 37 °C | remaining concentration | 320 ± 40 µg/mL
CC(C)C[C@@H]1NC(=O)CNC(=O)[C@H](CC(N)=O)NC(=O)[C@H](CCCNC(=N)N)NC(=O)[C@H]([C@@H](C)O)NC(=O)[C@@H]2CSSC[C@@H]3NC(=O)[C@H](CCCCN)NC(=O)CNC(=O)CNC(=O)[C@H](C(C)C)NC(=O)[C@@H]4CSSC[C@H](NC(=O)[C@H]([C@@H](C)O)NC(=O)[C@H](CSSC[C@H](NC(=O)[C@H](C(C)C)NC(=O)[C@@H]5CCCN5C1=O)C(=O)NCC(=O)N[C@@H](CCC(=O)O)C(=O)N[C@@H]([C@@H](C)O)C(=O)N4)NC(=O)CNC(=O)[C@@H]1CCCN1C(=O)[C@H]([C@@H](C)O)NC(=O)[C@H](CC(N)=O)NC3=O)C(=O)N[C@@H](CO)C(=O)N[C@@H](Cc1c[nH]c3ccccc13)C(=O)N1CCC[C@H]1C(=O)N[C@@H](C(C)C)C(=O)N2 | HPLC | water | 180 µM, 14 days, 37 °C, deamidation stability | remaining peptide | 99.3 ± 1%
CC[C@H](C)[C@H](N)C(=O)N[C@H](CC(C)C)C(=O)N[C@@H](CCCNC(=N)N)C(=O)N[C@@H](Cc1c[nH]c2ccccc12)C(=O)N[C@@H](CO)C(=O)N[C@@H](CCCNC(=N)N)C(=O)N[C@@H](CCCCN)C(=O)N[C@@H](CC(C)C)C(=O)N1CCC[C@H]1C(=O)N[C@@H](CS)C(=O)N[C@H](C(=O)N[C@@H](CO)C(N)=O)C(C)C | 12G5 competition, SUP-T1 cells | human plasma | concentration not given, 2 h | remaining activity | 63 ± 12%

A few entries again:
Compound | assay | system | setting | quantity | value
C/C(=C\CCP(=O)(OCOC(=O)CC1CCOCC1)Oc1ccc(C(C)C)cc1)CO (stereo not drawn) | – | 50% Sprague-Dawley rat plasma | 100 µM, 2 h, pH 7.5, 37 °C | remaining compound | 0%
CCC[C@@](N)(CO)CCc1ccc(OCCCCCC(C)C)cc1 | – | human liver microsomes | 1 h | remaining compound | 60%
